Measured values gathered from unrelated publications.
Each numbered part is a random draw from the data of one study; scales do not carry over between parts.

Set 1
Target: RNA binding protein fox-1 homolog 2, RRM domain, GST-SBP tag (RBFOX2, Homo sapiens, UniProt O43251-10, residues 100-194)
Method: RNA Bind-n-Seq
Molecule type: RNA
Matrix: in vitro
Tested at: 365 nM
Notes: natural RNA segment, single round, ends assumed
Relative to: no-protein control
Direction: higher = stronger binding
Construct (chain): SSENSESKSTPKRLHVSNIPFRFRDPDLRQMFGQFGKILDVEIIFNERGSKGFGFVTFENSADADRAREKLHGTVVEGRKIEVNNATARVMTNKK
`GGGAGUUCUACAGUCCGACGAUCACCGCUUUCAAUACACAAUUAGUAAUCAACUGUUUUGUAUACUUGUUUUCAGUUUUCAUUUCGACAAGCACUGUAAUUAUAGCUGUUAGAAUAAAGUCUCUUAACUAUUUUGGAAUUCUCGGGUGCCAA`: “RBNS enrichment (R)” 0.274.
`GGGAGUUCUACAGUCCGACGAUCAGCUCCUUUAGAGAUUGUCAAGUCCUGAGCGAUGAGCUGCCCUUAAUCCUCAGAAGCCUUACAAAAAUUGAGAUGUACCAUUUCUACCCUUUGAGAAAAAAGAAAUAGAAUGGAAUUCUCGGGUGCCAA` — result for “RBNS enrichment (R)”: 0.639.
`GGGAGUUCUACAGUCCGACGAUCACCUUGGAAAGUUCACUAAUACUUCGCUCCAAGGCGUCUGUAAAAGAAGAUAUCUUUAUUGGAGCAAUGUUCAUGUGACUGGGAAUGACAGAAGAAUGGGAGAUGAGUAGUGGAAUUCUCGGGUGCCAA`: “RBNS enrichment (R)” 3.16.
Under “RBNS enrichment (R)”, `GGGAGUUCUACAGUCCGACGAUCGAGCUGUGUGUGUCCACCGAGGCACGGCCAGGAAGAGGCAGCCUUUACCUGUGAGGGGCUCCAUGCUCCAGCAGCAGAGCAGGUUCUAGUGACAAUUCAACUUUUUAUGCUGGAAUUCUCGGGUGCCAA` is recorded as 0.214.
`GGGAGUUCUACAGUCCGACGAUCAUCACAUGUCUAACUGGCUCACCACAUAGUGUGCUUUGAUUGUAUUUUGGCUUUGACUCUGCCAUUUCUGAAAUGUGGGGGAGGAUGGAGGCAGCUGACCUCUCCAGUUGUGGAAUUCUCGGGUGCCAA`: “RBNS enrichment (R)” 0.568.
`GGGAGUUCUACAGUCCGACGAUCUAAGAGGUCUUAGAAACAUAGCCUGUAAAUGUGUCUUGUAACUGGCACACUAAAAAAGAUCCUAGUUGAGCAUCUCUCUUGGUGAGGAAGCGAUGUGUGUGCGGUUCAGGUGGAAUUCUCGGGUGCCAA`: “RBNS enrichment (R)” 0.931.
For `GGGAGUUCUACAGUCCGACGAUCCUUGUUCUUGCAUGAGAUGGCUUUGGUUGUCCCAGUACUCCAGUCUCUCCCUUCCCUUACCUGGCCCCUUGGUGCUCCUUCAGCAUUUGUGCUGUCUACCUCUCACUGGGUGGAAUUCUCGGGUGCCAA`, “RBNS enrichment (R)” read 18.9.
`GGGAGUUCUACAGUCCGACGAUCAGUCAAUUUUGUACAAUUAGGUAUCUGACUUUACAAGUUUGUUAUCCUUUCUAAUUUUUACUGAACUGAAAGCACAAAGAAGACUACACAGAAAAUCUGGAAACAGUUGCUGGAAUUCUCGGGUGCCAA`: “RBNS enrichment (R)” 0.328.

Set 2
Target: Centromere-binding protein 1, full length, His-tagged (CBF1, Saccharomyces cerevisiae, UniProt P17106, residues 1-351)
Chain of UniProt P17106 (whole entry, looked up): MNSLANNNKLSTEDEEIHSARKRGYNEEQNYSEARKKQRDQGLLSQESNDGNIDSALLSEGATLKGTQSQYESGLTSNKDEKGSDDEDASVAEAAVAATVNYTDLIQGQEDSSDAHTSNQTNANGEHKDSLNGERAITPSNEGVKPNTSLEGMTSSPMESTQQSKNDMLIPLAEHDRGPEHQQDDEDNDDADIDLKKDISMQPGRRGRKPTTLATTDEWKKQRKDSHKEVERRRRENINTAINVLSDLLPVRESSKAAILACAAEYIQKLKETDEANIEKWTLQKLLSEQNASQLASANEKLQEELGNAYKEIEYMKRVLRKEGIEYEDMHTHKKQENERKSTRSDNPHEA
Method: competition protein-binding microarray
Molecule type: double-stranded DNA, one strand shown
Matrix: in vitro
Tested at: 2 µM
Notes: whole 60-bp probe, lowest competitor level
Together with: Pho4 competitor, 0.05 µM
Direction: higher = stronger binding
The fluorescence intensity of `CGTCCTAGCGATTGATCTGTGGGTGCCATGAGGAAGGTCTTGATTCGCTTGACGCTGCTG` is reported as 71.7 a.u.
`GTCTTGTCTCATTTTCACGTGACCTTCCCCACTTCAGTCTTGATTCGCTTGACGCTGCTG` gave a fluorescence intensity of 5000 a.u.
With `AAATTACTAAGTTGTCACACTACTTACCCCGTATGAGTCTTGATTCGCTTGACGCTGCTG` the fluorescence intensity was 102 a.u.
`CTTGGTCAATCAATCCACGTGAACCTCAACGCAGATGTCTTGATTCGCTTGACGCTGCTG` gave a fluorescence intensity of 657 a.u.
`AAGAGAAGGACCCGACACGGGTCCCTCTCGATATTAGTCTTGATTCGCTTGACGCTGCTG` has a fluorescence intensity of 55.4 a.u.
`CGTCCTAGTGATTGTCACGTGGGTGCCATGAGGAAGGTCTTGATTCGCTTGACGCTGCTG` gave a fluorescence intensity of 4200 a.u.

Set 3
Target: Sal-like protein 4, full length isoform A (SALL4, Homo sapiens, UniProt Q9UJQ4, residues 1-1053)
Chain of UniProt Q9UJQ4 (whole entry, looked up): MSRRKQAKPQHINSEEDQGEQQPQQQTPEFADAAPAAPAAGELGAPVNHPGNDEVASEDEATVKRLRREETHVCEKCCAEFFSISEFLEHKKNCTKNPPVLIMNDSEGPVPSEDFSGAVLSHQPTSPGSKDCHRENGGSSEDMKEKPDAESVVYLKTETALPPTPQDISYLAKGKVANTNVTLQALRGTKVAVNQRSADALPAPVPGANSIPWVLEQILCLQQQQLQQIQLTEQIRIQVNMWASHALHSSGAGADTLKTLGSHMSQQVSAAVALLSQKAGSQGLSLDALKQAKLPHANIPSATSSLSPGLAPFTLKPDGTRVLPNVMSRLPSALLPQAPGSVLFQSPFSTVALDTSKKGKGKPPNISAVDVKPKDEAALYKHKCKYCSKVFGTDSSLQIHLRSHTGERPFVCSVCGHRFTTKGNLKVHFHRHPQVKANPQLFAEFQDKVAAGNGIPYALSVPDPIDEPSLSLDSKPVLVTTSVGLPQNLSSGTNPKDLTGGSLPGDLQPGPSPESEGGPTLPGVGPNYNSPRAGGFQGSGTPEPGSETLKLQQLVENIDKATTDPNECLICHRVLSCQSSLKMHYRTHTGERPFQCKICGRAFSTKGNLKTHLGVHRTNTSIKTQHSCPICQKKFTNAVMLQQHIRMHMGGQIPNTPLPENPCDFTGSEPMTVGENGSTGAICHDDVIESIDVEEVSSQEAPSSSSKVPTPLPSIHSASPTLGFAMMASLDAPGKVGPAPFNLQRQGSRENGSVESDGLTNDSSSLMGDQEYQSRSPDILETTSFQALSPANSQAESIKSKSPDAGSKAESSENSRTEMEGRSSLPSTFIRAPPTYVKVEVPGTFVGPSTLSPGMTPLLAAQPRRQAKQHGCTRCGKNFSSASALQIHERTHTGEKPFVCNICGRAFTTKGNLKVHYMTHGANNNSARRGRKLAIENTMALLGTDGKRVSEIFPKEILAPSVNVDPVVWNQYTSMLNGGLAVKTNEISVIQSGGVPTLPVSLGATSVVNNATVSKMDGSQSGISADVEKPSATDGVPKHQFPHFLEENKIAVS
Method: universal PBM
Molecule type: double-stranded DNA, one strand shown
Matrix: in vitro
Tested at: 600 nM
Notes: 8-mer, flanks averaged, mean of replicates
Direction: higher = stronger binding
With `CACCGGGA` the E-score was -0.292.
`GCGGCACC` has an E-score of -0.31.
With `CGGTGCGC` the E-score was -0.385.
With `CTGGACGA` the E-score was -0.204.
`GAACTAGA` has an E-score of 0.117.
For `AAAGCAGG`, the E-score was 0.0119.

Further values, each from its own experiment
`PhoQ, residues 284 288 289 292 302 303 SIHLQL` has a fold induction of 6.83 (PhoP, residues 12 14 15 18 19 VQALL (Escherichia coli, UniProt P23836); Sort-seq, item: YFP reporter; E. coli; PhoQ-PhoP variant library, together with: 10 µM Mg2+; relative to: high Mg2+ state, higher = stronger signaling).

For quick reference, copied from above (set 3):
`GCGGCACC` has an E-score of -0.31.
With `CTGGACGA` the E-score was -0.204.
